# Published values collected from several papers.
# A part holds a random share of what one study measured. Changes are numbered by the printed parent chain.

# Set 1
# Target: ABI1, truncated, D143A, DHFR fusion (Arabidopsis thaliana)
# Technique: DHFR PCA, deep sequencing
# Matrix: yeast
# Notes: methotrexate growth selection, single substitutions
# Added: (+)-ABA 58 µM
# Baseline: wild-type fitted maximum
# Reading: higher = stronger binding
# Parent: PYL1, truncated, DHFR fusion (Arabidopsis thaliana); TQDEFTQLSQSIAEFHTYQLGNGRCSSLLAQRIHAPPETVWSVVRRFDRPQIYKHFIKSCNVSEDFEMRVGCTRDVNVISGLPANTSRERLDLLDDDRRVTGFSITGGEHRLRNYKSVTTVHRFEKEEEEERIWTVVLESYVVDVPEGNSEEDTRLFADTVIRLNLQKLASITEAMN
Change,relative binding score [%]
V70A,77.4
I105C,67.4
S63Q,85.4
Q19S,87
E129Y,91.6
W41R,-17.5
V100H,35.2
T119L,87.3
E64Q,88.4
N77T,92.5
N85S,93.5
Q167W,57.7
E152Q,82
V62N,21.7
D92R,22.5

# Set 2
# Target: Interferon regulatory factor 5, full length, phosphomimetic (IRF5, Homo sapiens, UniProt Q13568-2, residues 1-514, K96S/S451D/S453D/S456D/S462D)
# Technique: protein-binding microarray
# Molecule type: double-stranded DNA, one strand shown
# Matrix: in vitro
# Tested at: 250 nM
# Notes: 60-bp whole probe
# Added: salmon DNA 0.4 mg/ml
# Baseline: random background probes
# Reading: higher = stronger binding
# All sequences stand within: GCCTAGCAC … GTCTTGATTCGCTTGACGCTGCTG
Sequence,log fluorescence [z-score]
TCATTTATAAATTATCTTACTGTGCTA,1.42
GACGGACTCGACTTTCGGGACGTGCTA,4.94
TTAGATTTCAGTTCCGATGAGTGCTAG,2.38
TTAGGTATCGGTCTCGGTTGGTGCTAG,6.61
TTAGGTTTCGGTTCCGTTTAGTGCTAG,10
GACGATATCGGGACTGGAGAAGTGCTA,0.933
GACGGTTTCGGGTATCCGGACGTGCTA,7.94
GCCGGACTGGGTCTCGGGACGTGCTAG,-0.638
TTAGGACTGGGTATCCGTTAGTGCTAG,-0.195
TTAGGTATCCTTCTCCTTAAGTGCTAG,0.428
TTAGGACTGGGTTTTCGGTTAGTGCTA,4.5
GACGGTATCGGTCTCGCGACGTGCTAG,5.27
TTAGATTCCAGTTTCGATGAGTGCTAG,8.81
GACGGTATCGGTAGCGGGACGTGCTAG,3.97
TTGGGTCTCCTTCTCCTTTAGTGCTAG,-0.314
TCAGTTATAATATTATTACTGTGCTAG,0.816
GACGGGCTCCTACTGCTGACGTGCTAG,-0.526
CTTGCTTCCTAATTCTCTTTGTGCTAG,0.31
GACGATATCAATCTCGAGACGTGCTAG,1.04
TCACACATCTCACTCTAACTGTGCTAG,0.455
GACGCTTTCGGGTATCGGGACGTGCTA,8.88
GACGGTTTCGGGTATCGGGAAGTGCTA,8.65
TCATTTTTACTTCGGGTACTGTGCTAG,0.868
TTAGGATTGCTTCTCCTTTAGTGCTAG,0.151
TTAGGTATCCTACTGCTTAAGTGCTAG,0.247

# Set 3
# Target: RNA binding protein fox-1 homolog 2, RRM domain, GST-SBP tag (RBFOX2, Homo sapiens, UniProt O43251-10, residues 100-194)
# Technique: RNA Bind-n-Seq
# Molecule type: RNA
# Matrix: in vitro
# Tested at: 365 nM
# Notes: natural RNA segment, single round, ends assumed
# Baseline: no-protein control
# Reading: higher = stronger binding
# All sequences stand within: GGGAGUUCUACAGUCCGACGAUC … UGGAAUUCUCGGGUGCCAA
# Residues (chain): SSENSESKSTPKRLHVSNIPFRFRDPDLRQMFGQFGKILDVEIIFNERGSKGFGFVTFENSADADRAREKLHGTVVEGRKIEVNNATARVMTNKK
Sequence,RBNS enrichment (R)
AGUUCAACCAUUGUGGAAGUCAGUGUGGCGAUUCCUCAGGGAUCUAGAACUGGAAACACCAUUUGACCCAGCCAUCCCAUUACUGGGUAUAUACCCAAAGGACUAUAAAU,0.239
AAACCCAGCACAUAAGUAUCUGCGUGGUCUAGCCUUUCAUCUCCGUAACAAGCCAGGGGACUCUUGGCCAAAAGAAAGAAAGGGAAGUUGCACUAGGGCUUGUCCGUCCA,0.392
CAGGAGGCUGCGUGACAUGGGCCACUCUAGGACAGGUCAUCCUCCCCGAGUCCCUGCUGCUGCGCUCCUUUGCAUCCCUGGCCAGUGACCUUGUAUUUAUGAGGCCUCUG,0.855
CUUUUGUGACAGGAGCAUACCCAGAAUAAAACACGCCUACCUGUUAACUCGUUCAAAUAAUGUGGUCAUAACUUACACAUUUAAGCGUAUAUUGGAAUUGUUAACUCAAA,0.492
GAUUCCGAUCGACUGCCAAGCAGCAGCCGCUGCCAGGGGCUGCGUCUGACAUCCUGACCUCCUGGACUGUAGGACUAUAUAAAGUACUACUGUAGAACUGCAAUUUCCAU,0.379
CUCUGUGUGUGCGAGCACGCGUGUCUGUGUUUGUGUGUGCAUAGUUCUGUGGUUUUAGACACGCUUUCUUGUAGUGCUUCUGCAAAAAACAAAAAAGGGACUUAUUUUGC,2.08
ACUCAUGUUUAAAAGGACAAAGGGGAAUGAAGGUCAGUGAGAUCUAAAAAGUGUAUUUCUUUGCCAUUUGAUUUGGCUGAAGGACAGUCAGCAUCCUGUGUGAGAACACA,0.804
GCCGCAUAUUCCCAUGGGCAUAUUCCCAUGCUUUCUCAAAUAGACUACUGUGAUAAAAAUGAACUCAAUAUGUAGUAGCUUAUACUUUUCUCCAGUAUAUUGUUGGUCAC,0.564
GGGGCCUUCCUUGUCCCCCCGUGGACUCUCCAAUGUGGGACCUCGGUCCUGGGCUCUCACCGGGGUCUGUCAUUGGCUCUGCACAGGCUGCAUGAACCCACGCACCUGUC,0.867
GUGAUGCGGGAGGCUCACAAACUUACAAAUCCAACUUUUAUUCUGAGGAACUUACUGUACAAUAUCUAAAAAGAAAGUCACUGGGGAAAACCUUUCCUCCUUCCUCCCUC,0.356
AAAUAUGCCCAGAAUAGAAAAGCUAUGUUGGGGCACAUGUCCUGCAAAUAUGGCCCUAGAAACAAGUGAUAUGGAAUUUACUUGGUGAAUAAGUUAUAAAUUCCCACAGA,0.463
UGGAUCAGAAACUGGUUUUACCCGGACAUCACAAUCGAGGCCUUCAAAGCAGCGGGGAGUCGGGCUGUGGCAUGUCGUUCACAGAUAAAUGGCACACCUAGAUUCUUCUG,0.472

# Set 4
# Target: CCNA1, cyclin fold, Cln2 fusion (human)
# Technique: yeast growth competition, sequencing
# Matrix: yeast
# Notes: weak parent motif
# Baseline: not given
# Reading: higher = stronger binding
# Parent: MICAL3 docking peptide (human); LQLRRQLSFSEDS; partner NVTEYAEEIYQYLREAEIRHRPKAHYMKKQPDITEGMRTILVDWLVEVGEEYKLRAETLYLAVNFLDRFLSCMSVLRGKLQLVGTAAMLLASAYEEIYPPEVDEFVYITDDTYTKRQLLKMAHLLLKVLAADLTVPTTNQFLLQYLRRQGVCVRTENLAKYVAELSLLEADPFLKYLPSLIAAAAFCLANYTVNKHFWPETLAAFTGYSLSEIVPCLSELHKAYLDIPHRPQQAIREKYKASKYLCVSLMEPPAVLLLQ
Change,normalised enrichment score
L7K,0.0927
L7C,-0.0182
D12E,0.785
S10V,0.175
R5G,0.00422
D12F,0.392
S8R,-0.0287
Q6E,0.434
S10P,0.813
Q2L,0.397
L3Q,0.254
R5K,0.182
L7T,0.0728
Q6M,0.307
F9H,-0.0694

# Set 5
# Target: Histone acetyltransferase KAT6A, winged helix 2, GST fusion (KAT6A, Homo sapiens, UniProt Q92794, residues 85-181)
# Technique: protein binding microarray
# Molecule type: double-stranded DNA, one strand shown
# Matrix: in vitro
# Tested at: not given
# Notes: 8-mer, flanks averaged, mean of 2 arrays, mostly near background
# Baseline: not given
# Reading: higher = stronger binding
# Construct (chain): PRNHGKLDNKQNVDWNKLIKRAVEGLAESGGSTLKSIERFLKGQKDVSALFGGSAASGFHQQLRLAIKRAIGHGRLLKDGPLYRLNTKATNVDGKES
Sequence,E-score
TCGTTGAA,0.0387
GGTGCTCA,0.0811
AAGAAACG,0.14
CCTATCAG,-0.125
AACTCTCA,-0.0848
TCGGTTAA,0.0433
AACCGACC,0.0502
ACCCCGAT,0.0142
CAGCGATC,0.0133
AATCCCGG,-0.0407
GACCGGAC,0.0417
AGAATGAG,-0.174
GGATTGAC,-0.0214
TAATTGAA,0.111
CAGTATCA,-0.189
ACGGTAAG,-0.149
ACTTTGAA,-0.0913
CAAGAAAA,0.191
CCCCAAGC,0.139
CCCCTCCG,0.176

# A few entries again (set 5):
Sequence,E-score
TCGTTGAA,0.0387
GGTGCTCA,0.0811
AAGAAACG,0.14
CCTATCAG,-0.125
AACTCTCA,-0.0848
TCGGTTAA,0.0433
AACCGACC,0.0502
ACCCCGAT,0.0142
CAGCGATC,0.0133
AATCCCGG,-0.0407
GACCGGAC,0.0417
